Assay results collected from several papers.
Compare with care: the assays were run in different laboratories. Values joined by “and” are separate records of one study, mostly repeats; a detail may differ. ± marks the error that the study gave.
Cell line: HT-29

For `C#CCN(CC(=O)O[C@H]1[C@H](C)O[C@@H](O[C@H]2[C@H](N(C)C)[C@@H](O)[C@H](O[C@H]3[C@@H](CC=O)C[C@@H](C)[C@@H](O[C@H]4CC[C@H](N(C)C)[C@@H](C)O4)/C=C/C=C/C[C@@H](C)OC(=O)C[C@@H](O)[C@@H]3OC)O[C@@H]2C)C[C@@]1(C)O)C(=O)c1ccc(C(F)(F)F)cc1`, the IC50 was 710 nM (cell growth or viability, CCK-8; 72 h).
The EC50 of `O=C(Cc1cccc(C(F)(F)F)c1)Nc1cc(Oc2c(Br)cc3nc(NC(=O)C4CC4)sc3c2Br)ccc1F` is reported as 380 ± 10 nM (necroptosis, CellTiter-Glo; added: TNF, SMAC mimetic and zVAD (TSZ)).
`COc1cc(CNC(=O)C[C@H](C)CCC=C(C)C)ccc1OCc1cn(-c2ccccc2[N+](=O)[O-])nn1` gave a growth percent of 22.6% (SRB; 10 µM, 48 h).
The GI50 of `N#Cc1c(N)nc(N)nc1OCC1CCCCC1` is reported as < 20000 nM and 14000 nM (cell growth or viability, SRB; 72 h).
`CSc1ccc(/C=C2/C(C)=C(CC(=O)NCCN(C)C)c3cc(F)ccc32)cc1` gave a CC50 of 650 nM (cell growth or viability).
With `O=C(Cc1cccc(C(F)(F)F)c1)Nc1cc(Oc2ccc3nc(NC(=O)C4CC4)sc3c2C(=O)NC2CC2)ccc1F` the EC50 was 1040 ± 184 nM (necroptosis, CellTiter-Glo; added: TNF, SMAC mimetic and zVAD (TSZ)).
The apoptotic cells of `CC12CCCC(n3cc(C(=O)N4CCCC(N)C4)nn3)(C1)C1CC(C)(C)C1CC2` (stereo not shown) is reported as 69.5% (annexin V/PI flow cytometry; 10 µM, 48 h).
`CC(Cc1ccc(Cl)cc1)=C(c1ccc(Cl)cc1)c1ccc(OCCN(C)C)cc1` gave a GI50 of 1360 nM (cell growth or viability, SRB).
`COc1cc(CNC(=O)C[C@H](C)CCC=C(C)C)ccc1OCc1cn(-c2ccc(F)cc2)nn1` gave a growth percent of 103% (SRB; 10 µM, 48 h).
`O=C(Cc1cccc(C(F)(F)F)c1)Nc1cc(Oc2cc(CO)c3nc(NC(=O)C4CC4)sc3c2)ccc1F` has an EC50 of greater than 10000 nM (necroptosis, CellTiter-Glo; added: TNF, SMAC mimetic and zVAD (TSZ)).
`CC(=O)OC[C@H]1O[C@@H](Sc2sc(C(=O)c3ccc(Br)cc3)c(N)c2-c2nc3ccccc3s2)[C@H](OC(C)=O)[C@@H](OC(C)=O)[C@H]1OC(C)=O` gave a growth of 99.7% (SRB; 10 µM, 48 h; reference: untreated).
With `O=C(/C=C(O)/C=C/c1cccs1)/C=C/c1cccs1` the intracellular ROS was 111 ± 14.8% (DCFH-DA, SRB-normalized; 1 µM; reference: untreated cells).
`C=C1CC(OC(=O)C(C)(O)CCl)C2C(=C)C(=O)OC2C2C1CC(O)C2(O)CCl` (stereo not shown) gave a necrotic cells of 23.6% (annexin V/PI; concentration not given, 48 h).
`COC(=O)c1cc(Oc2ccc(F)c(NC(=O)Cc3cccc(C(F)(F)F)c3)c2)cc2sc(NC(=O)C3CC3)nc12` gave an EC50 of greater than 10000 nM (necroptosis, CellTiter-Glo; added: TNF, SMAC mimetic and zVAD (TSZ)).
For `O=C(O)CCNC(=O)[C@H](Cc1c[nH]cn1)NC(=O)[C@H](Cc1c[nH]cn1)NC(=O)CCNC(=O)[C@@H]1CCCN1`, the viability was 83.4% (LDH release; 10 µg/mL, 6 h, 1% FBS).
`CC[C@H](C)[C@@H]1NC(=O)[C@@H](CCC(N)=O)NC(=O)CNC(=O)[C@H](Cc2ccc(O)cc2)N=C[C@H](CC(C)C)NC(=O)[C@H](C(C)C)NC(=O)[C@H](CO)NC1=O` gave an inhibition of 80% (20S proteasome activity; 6.7 µM, 2 h).
The IC50 of `CCCCc1ccc(C(=O)O[C@@H]2CC(=O)O[C@H](C)C/C=C/C=C/[C@H](O[C@H]3CC[C@H](N(C)C)[C@@H](C)O3)[C@H](C)C[C@H](CC=O)[C@H](O[C@@H]3O[C@H](C)[C@@H](O[C@H]4C[C@@](C)(O)[C@@H](O)[C@H](C)O4)[C@H](N(C)C)[C@H]3O)[C@H]2OC)cc1` is reported as 1450 nM (cell growth or viability, CCK-8; 72 h).
With `CCN1CCN(Cc2ccc(Nc3ncc4c(n3)N(C)c3ccccc3C(=O)N4C)cc2C(F)(F)F)CC1` the EC50 was 951 nM (cell growth or viability, ATP luminescence; 96 h).
`O=C(Cc1cccc(C(F)(F)F)c1)Nc1cc(Oc2cc(C(=O)O)c3nc(NC(=O)C4CC4)sc3c2)ccc1F` gave an EC50 of greater than 10000 nM (necroptosis, CellTiter-Glo; added: TNF, SMAC mimetic and zVAD (TSZ)).
For `Oc1cc(O)c2c(c1)OC(c1ccc(O)c(O)c1)C(OC1(c3ccc(O)c(O)c3)Oc3cc(O)cc(O)c3C(O)C1O)C2` (stereo not shown), “maximal DMR response” read greater than 1000 pm (agonist, dynamic mass redistribution).
With `CCc1c2c(nc3ccc(O)cc13)-c1cc3c(c(=O)n1C2)COC(=O)[C@@]3(CC)OC(=O)[C@H](N)C(C)C` the EC50 was 9180 nM (cell viability, MTT; 72 h).
For `CC(=O)OC[C@H]1O[C@@H](Sc2sc(C(=O)c3ccc(C)cc3)c(N)c2-c2nc3ccccc3s2)[C@H](OC(C)=O)[C@@H](OC(C)=O)[C@H]1OC(C)=O`, the growth was 94.2% (SRB; 10 µM, 48 h; reference: untreated).
`CCC(=C(c1ccc(Cl)cc1)c1ccc(OCCCN(C)C)cc1)c1ccc(OC)cc1` gave a GI50 of 1060 nM (cell growth or viability, SRB).
With `O=C1CCNC(=O)[C@H](Cc2c[nH]cn2)NC(=O)[C@@H]2CCCN2C(=O)[C@H](Cc2c[nH]cn2)NC(=O)CCN1` the viability was 21.3% (MTT; 10 µg/mL, 6 h).
For `Cc1ccc(C(C)C)cc1.O=C([N-]c1nc2ccccc2[nH]1)c1cnccn1.[Cl-].[Ru+2]`, the selectivity index was greater than 2 (cytotoxicity, MTT; reference: KMST-6 over HT-29).
The growth percent of `COc1cc(CNC(=O)C[C@H](C)CCC=C(C)C)ccc1OCc1cn(-c2ccc(Cl)c(Cl)c2)nn1` is reported as 78.3% (SRB; 10 µM, 48 h).
For `O=C1CCNC(=O)[C@@H]2CCCN2C(=O)CCNC(=O)[C@H](Cc2c[nH]cn2)NC(=O)[C@H](Cc2c[nH]cn2)N1`, the viability was 34.3% (LDH release; 10 µg/mL, 6 h, 1% FBS).
For `COC(=O)c1c(Oc2ccc(F)c(NC(=O)Cc3cccc(C(F)(F)F)c3)c2)ccc2nc(NC(=O)C3CC3)sc12`, the EC50 was 23 ± 6 nM (necroptosis, CellTiter-Glo; added: TNF, SMAC mimetic and zVAD (TSZ)).
`CO[C@@H]1[C@@H](O[C@@H]2O[C@H](C)[C@@H](O[C@H]3C[C@@](C)(O)[C@@H](OC(=O)Nc4ccc(C)cc4)[C@H](C)O3)[C@H](N(C)C)[C@H]2O)[C@@H](CC=O)C[C@@H](C)[C@@H](O[C@H]2CC[C@H](N(C)C)[C@@H](C)O2)/C=C/C=C/C[C@@H](C)OC(=O)C[C@H]1O` has an IC50 of 3270 nM (cell growth or viability, CCK-8; 72 h).
`COc1cc(CNC(=O)C[C@H](C)CCC=C(C)C)ccc1OCc1cn(-c2ccc([N+](=O)[O-])cc2)nn1` has a growth percent of 108% (SRB; 10 µM, 48 h).
With `Cc1nn(-c2ccc(S(=O)(=O)N[C@H](CO)CC(C)C)cc2)c2nn3nnnc3nc12` the apoptotic cells was 23.5 ± 2.12% (PI/Hoechst staining; 0.5 µM, 24 h).
With `O=C(Cc1cccc(C(F)(F)F)c1)Nc1cc(Oc2c(F)cc3nc(NC(=O)C4CC4)sc3c2Cl)ccc1F` the EC50 was 76 ± 5 nM (necroptosis, CellTiter-Glo; added: TNF, SMAC mimetic and zVAD (TSZ)).
The growth percent of `COc1cc(CNC(=O)C[C@H](C)CCC=C(C)C)ccc1OCc1cn(-c2ccc(Cl)cc2Cl)nn1` is reported as 82.3% (SRB; 10 µM, 48 h).
`COc1cc2nc(NC(=O)C3CC3)sc2cc1Oc1ccc(F)c(NC(=O)Cc2cccc(C(F)(F)F)c2)c1` has an EC50 of 10 ± 2 nM (necroptosis, CellTiter-Glo; added: TNF, SMAC mimetic and zVAD (TSZ)).
With `O=C(CCNC(=O)[C@H](Cc1c[nH]cn1)NC(=O)[C@@H]1CCCN1)NCCC(=O)N[C@@H](Cc1c[nH]cn1)C(=O)O` the viability was 26.5% (MTT; 10 µg/mL, 6 h).
`COc1cc(CNC(=O)C[C@H](C)CCC=C(C)C)ccc1OCc1cn(-c2ccccc2Cl)nn1` gave a growth percent of 76.7% (SRB; 10 µM, 48 h).
With `CC/C=C\C/C=C\C/C=C\C/C=C\C/C=C\C/C=C\CCC(=O)Nc1ccn(C2OC(CO)C(O)C2(F)F)c(=O)n1` (stereo not shown) the GI50 was 68.3 nM (cell growth or viability, SRB).
The growth percent of `COc1cc(CNC(=O)C[C@H](C)CCC=C(C)C)ccc1O` is reported as 104% (SRB; 10 µM, 48 h).
`N[C@@H](Cc1c[nH]cn1)C(=O)NCCC(=O)NCCC(=O)N[C@@H](Cc1c[nH]cn1)C(=O)O` has a viability of 26.5% (MTT; 10 µg/mL, 6 h).
`COc1cc2ncc3c(c2cc1-c1cn(C)nc1C)n(-c1c(F)cncc1OC)c(=O)n3C`: CHK1 phosphorylation “no effect” (ATR-CHK1 signaling; up to 30 µM, added: hydroxyurea).

Excerpt of the above:
`CC(=O)OC[C@H]1O[C@@H](Sc2sc(C(=O)c3ccc(Br)cc3)c(N)c2-c2nc3ccccc3s2)[C@H](OC(C)=O)[C@@H](OC(C)=O)[C@H]1OC(C)=O` gave a growth of 99.7% (SRB; 10 µM, 48 h; reference: untreated).
With `O=C(/C=C(O)/C=C/c1cccs1)/C=C/c1cccs1` the intracellular ROS was 111 ± 14.8% (DCFH-DA, SRB-normalized; 1 µM; reference: untreated cells).
`C=C1CC(OC(=O)C(C)(O)CCl)C2C(=C)C(=O)OC2C2C1CC(O)C2(O)CCl` (stereo not shown) gave a necrotic cells of 23.6% (annexin V/PI; concentration not given, 48 h).
`COC(=O)c1cc(Oc2ccc(F)c(NC(=O)Cc3cccc(C(F)(F)F)c3)c2)cc2sc(NC(=O)C3CC3)nc12` gave an EC50 of greater than 10000 nM (necroptosis, CellTiter-Glo; added: TNF, SMAC mimetic and zVAD (TSZ)).
For `O=C(O)CCNC(=O)[C@H](Cc1c[nH]cn1)NC(=O)[C@H](Cc1c[nH]cn1)NC(=O)CCNC(=O)[C@@H]1CCCN1`, the viability was 83.4% (LDH release; 10 µg/mL, 6 h, 1% FBS).
`CC[C@H](C)[C@@H]1NC(=O)[C@@H](CCC(N)=O)NC(=O)CNC(=O)[C@H](Cc2ccc(O)cc2)N=C[C@H](CC(C)C)NC(=O)[C@H](C(C)C)NC(=O)[C@H](CO)NC1=O` gave an inhibition of 80% (20S proteasome activity; 6.7 µM, 2 h).
The IC50 of `CCCCc1ccc(C(=O)O[C@@H]2CC(=O)O[C@H](C)C/C=C/C=C/[C@H](O[C@H]3CC[C@H](N(C)C)[C@@H](C)O3)[C@H](C)C[C@H](CC=O)[C@H](O[C@@H]3O[C@H](C)[C@@H](O[C@H]4C[C@@](C)(O)[C@@H](O)[C@H](C)O4)[C@H](N(C)C)[C@H]3O)[C@H]2OC)cc1` is reported as 1450 nM (cell growth or viability, CCK-8; 72 h).
